# Results from different studies.
# A part holds a random share of what one study measured.

# Block 1
# Target: RING finger protein unkempt homolog, zinc fingers 1-6, GST-SBP tag (UNK, Homo sapiens, UniProt Q9C0B0, residues 30-357)
# Technique: RNA Bind-n-Seq
# Molecule type: RNA
# Sample: in vitro
# Concentration: not given
# Notes: RNA with constant flanks, ends assumed
# Reference: input RNA pool
# Reading: higher = stronger binding
# Shared flanks, not repeated: GGGAGUUCUACAGUCCGACGAUC … CAACAGAGGAUUGAGCAUCA
# Residues (chain): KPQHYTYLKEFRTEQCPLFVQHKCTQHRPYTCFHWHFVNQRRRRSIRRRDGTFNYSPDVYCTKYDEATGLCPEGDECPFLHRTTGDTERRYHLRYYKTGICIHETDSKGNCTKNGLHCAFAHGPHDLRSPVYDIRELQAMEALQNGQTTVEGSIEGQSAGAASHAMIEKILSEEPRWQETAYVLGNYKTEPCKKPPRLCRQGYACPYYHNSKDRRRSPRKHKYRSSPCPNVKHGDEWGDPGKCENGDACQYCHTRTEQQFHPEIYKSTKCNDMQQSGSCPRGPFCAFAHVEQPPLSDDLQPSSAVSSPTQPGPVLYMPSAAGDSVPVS
Sequence,bound/input enrichment [ratio]
UUGAAGCAAGUUCUCGGCCAGAUGGUGAUUGAUGAGGAGCUUCUGGGAGAUGGACACAGCUACCGUCCUAGAGCUAUUCAUUCAUGGCUGACCAGGGCCAUGUACAGCCGGCGCUCGAAG,0.157
UAAUUUAUUUGUAUCAAUCCCCGCUUUAUAUUAAACGGCAACAAAAAAGCACAGAAAAUUCCGCACUUUAAUAAUUUUGACAUUAUUGUACAGCUCUUAAGUAUUUUCAAGACAGCACUA,0.698
UGCCACCGCCGCUGCUGCCGCCGCCGCCGCCGCCGCCGCCGCUGCGACCUCCGCGUUCGGCCGCCGAAUUUGGAAUCCCUGCACCGGGCUAACAAUGAAGCAGAGUUCCAACGUGCCGGC,0.661
AAUUUUCAUUUCGCUUGUGUUCAUGGUGUGUGCUCCCAACCCCCUUUCCUCCCCUGACCCCUCCGUCCUUCAUUCCCAGUUUUCCGGAAUGAUACUUUAGGAGGAAUAGAUUGUAAAGAG,0.512
UGUUUGUGUGUGUGCGUGUGCGUGUGUGUGUGUGUUGGAAUUUCCUAUCUGCCUGGAUAUAUCCGCAGAGUUUGAAUGUAGUUUUGGCCUUUGGCCAUUAGACUUCUAUUAAAAUUCAUU,0.687
UUGAUCAAGUUUUAUAAAUGCCAUUCAUAGGAGCUGUGAUUCUGGCAAAUUAAAGUAAUUCACCGUUUUCUGCAAUUUGAAAUAAAAGCAUUUCCAACUUCUAGAUUAUCAUUUUAUAAA,0.827
CAGGUCUAUGGAGUCGAGGUGCCUGCAGAGGGUGAGGCCGAGAAGCCUUGGUGGCAGGUAUUCCGUGAUGACCUUACCAAGCCAAUCAUUGACAAUAUUGUGUCUGAUCUCAUUCAGAUU,0.0862
GGGGGGGGUGUGCCUGCUGUACUUGACUGAAGUGUAAAGCUUUGGUAAGGAUUUGGCCUCCCGCAGUCUUAGGUUUCUGCAUUUACCACGGUGACACAGCCCCUACAGGGCUGACUAGGA,3.25

# Block 2
# Target: Histone acetyltransferase KAT6A, both winged helices, GST fusion (KAT6A, Homo sapiens, UniProt Q92794, residues 1-181)
# Technique: protein binding microarray
# Molecule type: double-stranded DNA, one strand shown
# Sample: in vitro
# Concentration: not given
# Notes: 8-mer, flanks averaged, mean of 2 arrays, mostly near background
# Reference: not given
# Reading: higher = stronger binding
# Target sequence (chain): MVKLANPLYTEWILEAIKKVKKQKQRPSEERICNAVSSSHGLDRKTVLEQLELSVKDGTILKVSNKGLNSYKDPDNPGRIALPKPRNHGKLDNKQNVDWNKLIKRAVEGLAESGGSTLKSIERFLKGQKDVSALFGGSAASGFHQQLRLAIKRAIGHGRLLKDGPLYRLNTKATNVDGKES
Sequence,E-score
AGTCGGGA,0.149
ACTCTTCA,-0.133
TCAGCAGA,-0.183
GCATTGGC,0.021
GATGAGAA,-0.157
CGTAGAAG,0.0532
CTTTTCTC,-0.2
ACCATAAA,-0.0591
GATGTTCC,0.018
ACGAGACC,-0.0726
AATACGCG,0.271
GTTTTCAA,0.0241
AGAAATGG,-0.0856
CTTAGCCA,-0.0252
TCTTCACA,-0.174
GTTGTATA,0.0609
CTCGAATC,-0.218
CTAGTCAC,-0.129
ATCCCGAA,-0.0209
CAACGGAG,0.098
AGACATAG,-0.0611
AGCATGAG,-0.127
GCTCTGAA,-0.0635

# Block 3
# Target: PABPC1L2, full length, GST fusion (mouse, UniProt A0ABA7IW68)
# Technique: RNAcompete
# Molecule type: RNA
# Sample: in vitro
# Concentration: 20 nM
# Notes: 7-mer, probes averaged, single round
# Reference: mean of 7-mers
# Reading: higher = stronger binding
# Target sequence (chain): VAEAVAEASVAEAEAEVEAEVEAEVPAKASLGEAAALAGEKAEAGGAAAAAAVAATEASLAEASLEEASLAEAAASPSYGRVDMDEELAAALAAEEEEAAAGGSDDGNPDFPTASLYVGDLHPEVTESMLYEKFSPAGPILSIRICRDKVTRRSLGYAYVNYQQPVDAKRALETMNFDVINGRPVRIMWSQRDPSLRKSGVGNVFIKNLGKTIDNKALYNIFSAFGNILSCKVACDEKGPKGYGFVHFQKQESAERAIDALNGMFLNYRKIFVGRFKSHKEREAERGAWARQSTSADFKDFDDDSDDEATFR
Sequence,7-mer Z-score
UUGUCAC,-0.191
CCGUGCG,-0.331
CACUUAA,-0.0283
ACGAUCU,-0.146
CAUCAGG,0.178
GUUGGGC,-0.108
AACUCAG,-0.012
CUAUUUA,0.233
GAGCGUG,0.0388
ACACGCC,-0.226
UGUAUCG,-0.342
UGAGCGG,0.0424
UCGUCCG,-0.34
ACUCCCA,-0.148
CACCUUC,-0.438
AGGCUAC,-0.0101
GCCCAGG,-0.193
CUUGCUG,-0.463
UGAACUC,-0.226
GGAGCUA,0.0533

# Block 4
# Target: Sal-like protein 4, full length isoform B (SALL4, Homo sapiens, UniProt Q9UJQ4-2, residues 1-616)
# Technique: universal PBM
# Molecule type: double-stranded DNA, one strand shown
# Sample: in vitro
# Concentration: not given
# Notes: 8-mer, flanks averaged, mean of replicates
# Reading: higher = stronger binding
# Construct (chain): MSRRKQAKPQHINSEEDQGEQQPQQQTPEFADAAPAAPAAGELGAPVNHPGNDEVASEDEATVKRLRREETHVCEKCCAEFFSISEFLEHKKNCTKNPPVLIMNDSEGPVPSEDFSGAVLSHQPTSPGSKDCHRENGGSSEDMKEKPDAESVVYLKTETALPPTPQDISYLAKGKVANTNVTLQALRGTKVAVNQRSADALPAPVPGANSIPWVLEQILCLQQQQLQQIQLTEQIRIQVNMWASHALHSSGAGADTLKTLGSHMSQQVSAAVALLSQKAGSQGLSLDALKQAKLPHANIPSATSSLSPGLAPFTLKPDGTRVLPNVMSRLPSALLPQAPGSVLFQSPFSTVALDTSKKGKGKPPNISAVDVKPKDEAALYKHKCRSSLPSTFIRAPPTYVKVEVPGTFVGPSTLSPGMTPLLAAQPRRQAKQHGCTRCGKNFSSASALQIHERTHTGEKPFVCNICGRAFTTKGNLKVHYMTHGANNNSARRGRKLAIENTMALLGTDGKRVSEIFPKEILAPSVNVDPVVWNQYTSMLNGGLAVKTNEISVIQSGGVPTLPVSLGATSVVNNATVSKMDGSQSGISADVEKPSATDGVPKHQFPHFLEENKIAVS
Sequence,E-score
ATGGGAAT,0.0704
GCACTGGC,-0.2
GACCCTAA,-0.153
ATCCTCGG,-0.148
CTCCTCAA,-0.213
AAAGGTCC,-0.223
AAGAACAA,0.265
ATAGTCCC,0.00943
CATAACAC,0.33
AAACATTC,0.0997
CCTATACG,-0.0202
CAGAGATC,-0.189
CGTGGAGC,-0.18
AGACCTGG,-0.226
ATCGACCG,-0.207
CGGCCGGA,-0.223
AGATGCCT,0.0329

# Repeated from above (block 2):
Sequence,E-score
AATACGCG,0.271
GTTTTCAA,0.0241
AGAAATGG,-0.0856
CTTAGCCA,-0.0252
TCTTCACA,-0.174
GTTGTATA,0.0609
CTCGAATC,-0.218
CTAGTCAC,-0.129
ATCCCGAA,-0.0209
CAACGGAG,0.098
